Published values gathered from unrelated publications.
Each numbered part is a random draw from the data of one study; scales do not carry over between parts.
Chain of UniProt Q13873 (whole entry, looked up): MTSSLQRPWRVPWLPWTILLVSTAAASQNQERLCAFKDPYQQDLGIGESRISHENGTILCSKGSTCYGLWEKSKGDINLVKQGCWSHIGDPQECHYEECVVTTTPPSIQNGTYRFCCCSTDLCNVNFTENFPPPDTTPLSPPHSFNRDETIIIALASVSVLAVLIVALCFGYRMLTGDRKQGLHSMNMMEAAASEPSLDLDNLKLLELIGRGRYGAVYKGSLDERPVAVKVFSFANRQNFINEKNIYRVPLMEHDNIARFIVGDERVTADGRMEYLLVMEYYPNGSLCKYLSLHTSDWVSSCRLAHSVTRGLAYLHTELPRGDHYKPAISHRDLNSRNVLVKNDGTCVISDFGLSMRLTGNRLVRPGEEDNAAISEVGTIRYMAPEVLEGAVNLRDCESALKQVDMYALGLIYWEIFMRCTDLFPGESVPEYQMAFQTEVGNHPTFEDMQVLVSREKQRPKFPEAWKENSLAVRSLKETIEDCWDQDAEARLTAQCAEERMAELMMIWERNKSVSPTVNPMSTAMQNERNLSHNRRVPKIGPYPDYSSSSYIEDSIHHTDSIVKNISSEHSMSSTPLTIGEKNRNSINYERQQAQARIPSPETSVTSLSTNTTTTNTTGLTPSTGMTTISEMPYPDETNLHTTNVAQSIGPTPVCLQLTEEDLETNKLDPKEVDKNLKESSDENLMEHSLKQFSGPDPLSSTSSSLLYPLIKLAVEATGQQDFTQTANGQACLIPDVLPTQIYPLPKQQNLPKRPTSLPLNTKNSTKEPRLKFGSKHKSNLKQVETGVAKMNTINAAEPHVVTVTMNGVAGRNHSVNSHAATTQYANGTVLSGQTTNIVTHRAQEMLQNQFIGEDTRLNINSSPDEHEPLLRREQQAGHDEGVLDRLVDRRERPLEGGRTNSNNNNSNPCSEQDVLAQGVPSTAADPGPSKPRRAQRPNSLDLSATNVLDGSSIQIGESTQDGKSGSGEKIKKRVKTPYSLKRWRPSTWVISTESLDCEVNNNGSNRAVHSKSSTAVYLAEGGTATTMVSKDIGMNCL
Chain of UniProt Q8TF76 (whole entry, looked up): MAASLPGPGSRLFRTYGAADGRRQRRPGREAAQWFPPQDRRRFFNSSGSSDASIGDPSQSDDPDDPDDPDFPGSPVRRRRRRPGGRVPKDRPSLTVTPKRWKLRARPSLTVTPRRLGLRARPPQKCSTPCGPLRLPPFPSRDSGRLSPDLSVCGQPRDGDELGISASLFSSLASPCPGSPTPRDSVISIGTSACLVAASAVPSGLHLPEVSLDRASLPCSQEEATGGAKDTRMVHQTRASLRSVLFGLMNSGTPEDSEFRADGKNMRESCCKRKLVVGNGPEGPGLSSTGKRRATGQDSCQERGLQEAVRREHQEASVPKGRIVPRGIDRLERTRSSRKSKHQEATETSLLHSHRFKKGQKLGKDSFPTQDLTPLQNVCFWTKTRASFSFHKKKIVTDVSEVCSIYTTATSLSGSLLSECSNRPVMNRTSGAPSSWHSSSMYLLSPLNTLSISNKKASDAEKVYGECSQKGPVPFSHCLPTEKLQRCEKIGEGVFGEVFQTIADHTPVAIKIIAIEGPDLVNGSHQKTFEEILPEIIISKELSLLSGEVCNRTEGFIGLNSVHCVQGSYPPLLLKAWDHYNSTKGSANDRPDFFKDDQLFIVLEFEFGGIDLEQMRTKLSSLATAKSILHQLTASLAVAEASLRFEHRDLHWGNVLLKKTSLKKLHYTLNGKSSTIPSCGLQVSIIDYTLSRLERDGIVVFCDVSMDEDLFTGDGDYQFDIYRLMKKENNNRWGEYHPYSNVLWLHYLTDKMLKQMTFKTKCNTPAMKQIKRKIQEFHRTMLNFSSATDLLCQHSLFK
Chain of UniProt O94804 (whole entry, looked up): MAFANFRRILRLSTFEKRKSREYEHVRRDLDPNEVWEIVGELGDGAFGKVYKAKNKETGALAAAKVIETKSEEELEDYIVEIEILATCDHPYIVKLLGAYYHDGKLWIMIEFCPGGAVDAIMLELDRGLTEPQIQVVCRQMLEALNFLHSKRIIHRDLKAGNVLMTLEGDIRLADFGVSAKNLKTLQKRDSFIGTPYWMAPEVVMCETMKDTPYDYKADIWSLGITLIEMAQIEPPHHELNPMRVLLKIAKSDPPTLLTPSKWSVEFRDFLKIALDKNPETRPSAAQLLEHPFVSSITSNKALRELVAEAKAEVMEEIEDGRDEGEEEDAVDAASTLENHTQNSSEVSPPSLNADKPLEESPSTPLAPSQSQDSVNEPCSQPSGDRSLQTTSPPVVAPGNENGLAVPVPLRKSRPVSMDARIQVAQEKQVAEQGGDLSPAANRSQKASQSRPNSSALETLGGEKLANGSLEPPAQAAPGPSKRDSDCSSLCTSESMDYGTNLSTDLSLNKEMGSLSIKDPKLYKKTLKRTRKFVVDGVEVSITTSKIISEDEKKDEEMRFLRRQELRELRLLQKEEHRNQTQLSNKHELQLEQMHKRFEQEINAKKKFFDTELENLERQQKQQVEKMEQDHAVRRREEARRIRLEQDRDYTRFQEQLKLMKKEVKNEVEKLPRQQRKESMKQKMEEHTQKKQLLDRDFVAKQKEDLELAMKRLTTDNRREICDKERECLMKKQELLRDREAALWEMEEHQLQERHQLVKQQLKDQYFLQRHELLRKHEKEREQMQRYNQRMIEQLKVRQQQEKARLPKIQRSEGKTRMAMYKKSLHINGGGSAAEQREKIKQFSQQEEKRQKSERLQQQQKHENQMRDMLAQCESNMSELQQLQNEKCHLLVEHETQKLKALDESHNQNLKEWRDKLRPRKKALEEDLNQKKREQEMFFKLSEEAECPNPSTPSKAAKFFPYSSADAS
Chain of UniProt P30291 (whole entry, looked up): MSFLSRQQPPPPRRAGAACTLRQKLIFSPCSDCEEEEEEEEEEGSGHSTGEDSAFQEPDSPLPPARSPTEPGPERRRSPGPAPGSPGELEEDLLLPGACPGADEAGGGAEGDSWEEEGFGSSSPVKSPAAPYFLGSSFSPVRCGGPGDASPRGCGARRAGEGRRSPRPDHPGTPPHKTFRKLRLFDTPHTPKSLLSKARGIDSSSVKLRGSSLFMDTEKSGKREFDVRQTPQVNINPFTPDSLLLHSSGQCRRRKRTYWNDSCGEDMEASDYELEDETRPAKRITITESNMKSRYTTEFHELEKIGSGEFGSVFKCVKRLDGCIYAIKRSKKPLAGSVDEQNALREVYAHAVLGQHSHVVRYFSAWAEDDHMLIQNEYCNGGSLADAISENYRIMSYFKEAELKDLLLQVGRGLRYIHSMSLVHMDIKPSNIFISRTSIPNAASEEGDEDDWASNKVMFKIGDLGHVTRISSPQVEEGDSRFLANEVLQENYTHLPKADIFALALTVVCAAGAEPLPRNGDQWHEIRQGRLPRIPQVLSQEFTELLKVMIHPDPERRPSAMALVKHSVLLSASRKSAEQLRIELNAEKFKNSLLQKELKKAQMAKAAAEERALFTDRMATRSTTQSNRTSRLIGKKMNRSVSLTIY
Chain of UniProt Q8N752 (whole entry, looked up): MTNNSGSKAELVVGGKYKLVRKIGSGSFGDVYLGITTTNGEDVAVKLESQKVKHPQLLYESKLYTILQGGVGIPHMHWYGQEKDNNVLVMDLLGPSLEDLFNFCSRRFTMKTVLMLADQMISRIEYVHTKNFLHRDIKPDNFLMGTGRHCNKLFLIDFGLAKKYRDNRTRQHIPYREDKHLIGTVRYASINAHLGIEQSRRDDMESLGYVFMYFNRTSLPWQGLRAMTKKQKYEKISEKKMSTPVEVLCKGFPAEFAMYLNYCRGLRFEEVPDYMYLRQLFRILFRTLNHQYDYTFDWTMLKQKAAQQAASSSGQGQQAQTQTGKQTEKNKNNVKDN

Sample 1
Target: Myosin light chain kinase 2, skeletal/cardiac muscle (MYLK2, Homo sapiens, UniProt Q9H1R3)
Chain of UniProt Q9H1R3 (whole entry, looked up): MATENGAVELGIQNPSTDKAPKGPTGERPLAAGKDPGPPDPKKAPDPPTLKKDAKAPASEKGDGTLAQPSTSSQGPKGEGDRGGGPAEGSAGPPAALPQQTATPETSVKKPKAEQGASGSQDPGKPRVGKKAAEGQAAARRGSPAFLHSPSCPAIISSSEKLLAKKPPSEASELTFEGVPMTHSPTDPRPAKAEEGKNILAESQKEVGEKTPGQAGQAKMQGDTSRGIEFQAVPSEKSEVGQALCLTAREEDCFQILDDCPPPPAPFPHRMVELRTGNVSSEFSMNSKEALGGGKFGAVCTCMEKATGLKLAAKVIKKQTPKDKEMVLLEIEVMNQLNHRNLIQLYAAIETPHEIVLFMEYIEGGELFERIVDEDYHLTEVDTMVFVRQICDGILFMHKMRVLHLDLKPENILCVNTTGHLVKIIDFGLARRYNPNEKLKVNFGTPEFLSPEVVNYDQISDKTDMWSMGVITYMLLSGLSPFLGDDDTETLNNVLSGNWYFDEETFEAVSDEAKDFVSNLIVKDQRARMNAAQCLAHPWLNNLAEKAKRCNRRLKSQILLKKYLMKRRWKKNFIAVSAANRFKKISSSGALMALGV
Read-out: enzyme activity
Mode: inhibitor
Tested at: 0.5 µM
Relative to: control
With `COc1ccc(OC)c2c(=S)c3ccccc3[nH]c12` the remaining activity was 95.7%.
The remaining activity of `CO[C@H]1C[C@@H]2CC[C@@H](C)[C@@](O)(O2)C(=O)C(=O)N2CCCC[C@H]2C(=O)O[C@H]([C@H](C)C[C@@H]2CC[C@@H](O)[C@H](OC)C2)CC(=O)[C@H](C)/C=C(\C)[C@@H](O)[C@@H](OC)C(=O)[C@H](C)C[C@H](C)/C=C/C=C/C=C/1C` is reported as 103%.
`CCOC(=O)c1c(C)[nH]c(/C=C2\C(=O)Nc3ccccc32)c1C` gave a remaining activity of 74.7%.
The remaining activity of `COc1ccc(CNC(=O)Nc2ncc([N+](=O)[O-])s2)cc1` is reported as 98.5%.
`Cc1cccc(-c2[nH]c(C(C)(C)C)nc2-c2ccc3c(c2)OCO3)n1` gave a remaining activity of 99.2%.
The remaining activity of `Cn1sc(=O)n(Cc2ccccc2)c1=O` is reported as 101%.
For `O=C1NC(=O)C(c2cn(CCCn3ccnc3)c3ccccc23)=C1Nc1ccccc1`, the remaining activity was 95.7%.
`C#Cc1cccc(Nc2ncnc3cc(OCCOC)c(OCCOC)cc23)c1` gave a remaining activity of 100%.
The remaining activity of `COc1cc2ncnc(Nc3ccc(Oc4ccccc4)cc3)c2cc1OC` is reported as 101%.
The remaining activity of `O=S(=O)(c1cccc2cnccc12)N1CCCNCC1` is reported as 99.6%.
The remaining activity of `Cc1nc(-c2ccccc2)c(-c2ccncc2)o1` is reported as 100%.
With `O=C1NC(=O)C(c2cn(CCCO)c3ncccc23)=C1c1cnccn1` the remaining activity was 81.1%.
With `O=C(CCCc1ccc(-c2ccccc2F)cc1)Nc1ccc(O)cc1` the remaining activity was 97.8%.
For `Oc1ccc(-c2nc(-c3ccncc3)c(-c3ccc(F)cc3)[nH]2)cc1`, the remaining activity was 93.5%.
`Nc1ccc2ncnc(NCCc3ccc(Oc4ccccc4)cc3)c2c1` has a remaining activity of 97.6%.

Sample 2
Cell line: A-375
Tested at: 100 µM
Time: 18 h
For `COc1ccc2cc1Oc1ccc(cc1)C[C@H]1c3cc(c(OC)cc3CCN1C)Oc1c(OC)c(OC)cc3c1[C@H](C2)N(C)CC3`, the viability was 10%.
`COc1ccc(-c2cc(=S)ss2)cc1` has a viability of 89.2%.
`O=c1ccn([C@@H]2O[C@H](CO)[C@@H](O)[C@H]2O)c(=O)[nH]1` has a viability of 111%.
With `Cc1cccc(N(C)C(=S)Oc2ccc3ccccc3c2)c1` the viability was 83.9%.
The viability of `COc1ccc2cc1Oc1ccc(cc1)C[C@H]1c3c(cc4c(c3Oc3cc5c(cc3OC)CCN(C)[C@@H]5C2)OCO4)CCN1C` is reported as 11%.
`CC(C)(C)NC[C@H](O)COc1nsnc1N1CCOCC1` gave a viability of 99.7%.
For `CCCC(=O)O[C@]1(C(=O)CO)CC[C@H]2[C@@H]3CCC4=CC(=O)CC[C@]4(C)[C@H]3[C@@H](O)C[C@@]21C`, the viability was 76.7%.
`CC1(C)CCC(CN2CCN(c3ccc(C(=O)NS(=O)(=O)c4ccc(NCC5CCOCC5)c([N+](=O)[O-])c4)c(Oc4cnc5[nH]ccc5c4)c3)CC2)=C(c2ccc(Cl)cc2)C1` has a viability of 45.3%.
`N[C@@H](Cc1cc(I)c(Oc2ccc(O)c(I)c2)c(I)c1)C(=O)O` gave a viability of 64%.
`CCN(CCO)CCCC(C)Nc1ccnc2cc(Cl)ccc12` (centres unmarked) gave a viability of 29.2%.

Sample 3
Organism: Sarcocystis neurona
Read-out: parasite growth
Tested at: 10 µM
For `CC(=O)NC[C@H]1CN(c2ccc(N3CCOCC3)c(F)c2)C(=O)O1`, the inhibition was 3.2%.
`O=C(O)C[C@H](O)C[C@H](O)/C=C/c1c(C2CC2)nc2ccccc2c1-c1ccc(F)cc1` has an inhibition of 5.9%.
For `O=C1CCc2ccc(OCCCCN3CCN(c4cccc(Cl)c4Cl)CC3)cc2N1`, the inhibition was 10.6%.
With `CCCCCCCCCCC[C@@H](C[C@@H]1OC(=O)[C@H]1CCCCCC)OC(=O)[C@H](CC(C)C)NC=O` the inhibition was 25.1%.
The inhibition of `Oc1ccc(C2CNCCc3c2cc(O)c(O)c3Cl)cc1` (centres unmarked) is reported as -23.5%.
The inhibition of `CC(C)[N+](C)(CCOC(=O)C1c2ccccc2Oc2ccccc21)C(C)C.[Br-]` is reported as -30.1%.

Sample 4
SMILES: CC(C)(O)c1cncc(-c2nc3ccc(F)cc3n2C2CC2)c1
Read-out: cell-free assay
Technique: competition with immobilised ligand
Tested at: 1 µM
The remaining binding was 100% (STK10 (Homo sapiens, UniProt O94804)).
For HASPIN (Homo sapiens, UniProt Q8TF76): remaining binding read 83%.
WEE1 (Homo sapiens, UniProt P30291) — remaining binding: 72%.
It gave 100% for remaining binding (BMPR2 (Homo sapiens, UniProt Q13873)).
The remaining binding was 100% (CSNK1A1L (Homo sapiens, UniProt Q8N752)).
It gave 78% for remaining binding (PIK3CA (Homo sapiens, UniProt P42336, Q546K)).
It gave 97% for remaining binding (MYLK2 (Homo sapiens, UniProt Q9H1R3)).

Excerpt of the above (sample 4):
WEE1 (Homo sapiens, UniProt P30291) — remaining binding: 72%.
It gave 100% for remaining binding (BMPR2 (Homo sapiens, UniProt Q13873)).
The remaining binding was 100% (CSNK1A1L (Homo sapiens, UniProt Q8N752)).
It gave 78% for remaining binding (PIK3CA (Homo sapiens, UniProt P42336, Q546K)).
It gave 97% for remaining binding (MYLK2 (Homo sapiens, UniProt Q9H1R3)).
